Measured values collected from several papers.
Compare with care: the assays were run in different laboratories.
rep papain-like protease: Replicase polyprotein 1ab, papain-like protease (rep, Porcine epidemic diarrhea virus, UniProt P0C6Y4)
AMY2: Pancreatic alpha-amylase (AMY2, Sus scrofa, UniProt P00690)
UniProt P00690, sequence (whole entry, looked up): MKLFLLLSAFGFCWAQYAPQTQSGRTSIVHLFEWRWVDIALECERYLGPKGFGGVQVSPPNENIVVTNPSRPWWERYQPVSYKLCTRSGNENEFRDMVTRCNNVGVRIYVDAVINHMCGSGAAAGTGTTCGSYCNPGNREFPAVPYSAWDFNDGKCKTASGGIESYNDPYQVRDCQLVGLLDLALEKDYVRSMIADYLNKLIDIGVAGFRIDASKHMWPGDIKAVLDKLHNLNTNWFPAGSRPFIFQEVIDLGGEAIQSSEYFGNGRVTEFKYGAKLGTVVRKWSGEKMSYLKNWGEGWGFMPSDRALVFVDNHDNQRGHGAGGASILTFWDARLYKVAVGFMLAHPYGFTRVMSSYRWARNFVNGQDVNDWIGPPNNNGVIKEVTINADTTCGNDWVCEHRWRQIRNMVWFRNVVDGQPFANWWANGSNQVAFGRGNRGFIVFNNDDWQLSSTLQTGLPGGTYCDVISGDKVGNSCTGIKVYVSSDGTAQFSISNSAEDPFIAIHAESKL
UniProt P19801, sequence (whole entry, looked up): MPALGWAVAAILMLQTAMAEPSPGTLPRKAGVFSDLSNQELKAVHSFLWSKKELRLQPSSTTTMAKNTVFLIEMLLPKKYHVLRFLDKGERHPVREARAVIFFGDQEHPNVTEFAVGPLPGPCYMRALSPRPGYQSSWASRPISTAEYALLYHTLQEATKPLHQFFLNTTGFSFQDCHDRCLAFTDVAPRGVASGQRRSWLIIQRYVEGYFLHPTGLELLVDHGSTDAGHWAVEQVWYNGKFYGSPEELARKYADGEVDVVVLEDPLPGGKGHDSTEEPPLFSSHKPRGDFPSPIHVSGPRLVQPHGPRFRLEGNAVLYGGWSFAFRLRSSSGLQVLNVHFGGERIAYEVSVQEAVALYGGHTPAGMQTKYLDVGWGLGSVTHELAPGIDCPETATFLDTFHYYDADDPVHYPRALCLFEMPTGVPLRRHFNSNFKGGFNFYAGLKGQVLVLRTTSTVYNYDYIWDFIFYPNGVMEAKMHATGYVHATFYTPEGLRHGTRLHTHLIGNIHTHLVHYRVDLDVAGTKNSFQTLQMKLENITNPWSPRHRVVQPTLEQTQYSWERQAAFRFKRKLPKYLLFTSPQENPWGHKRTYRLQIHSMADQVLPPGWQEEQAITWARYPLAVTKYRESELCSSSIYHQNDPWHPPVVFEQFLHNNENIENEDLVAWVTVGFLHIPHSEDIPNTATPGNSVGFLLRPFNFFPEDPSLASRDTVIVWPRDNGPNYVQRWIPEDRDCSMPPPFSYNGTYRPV
UniProt Q86UE8, sequence (whole entry, looked up): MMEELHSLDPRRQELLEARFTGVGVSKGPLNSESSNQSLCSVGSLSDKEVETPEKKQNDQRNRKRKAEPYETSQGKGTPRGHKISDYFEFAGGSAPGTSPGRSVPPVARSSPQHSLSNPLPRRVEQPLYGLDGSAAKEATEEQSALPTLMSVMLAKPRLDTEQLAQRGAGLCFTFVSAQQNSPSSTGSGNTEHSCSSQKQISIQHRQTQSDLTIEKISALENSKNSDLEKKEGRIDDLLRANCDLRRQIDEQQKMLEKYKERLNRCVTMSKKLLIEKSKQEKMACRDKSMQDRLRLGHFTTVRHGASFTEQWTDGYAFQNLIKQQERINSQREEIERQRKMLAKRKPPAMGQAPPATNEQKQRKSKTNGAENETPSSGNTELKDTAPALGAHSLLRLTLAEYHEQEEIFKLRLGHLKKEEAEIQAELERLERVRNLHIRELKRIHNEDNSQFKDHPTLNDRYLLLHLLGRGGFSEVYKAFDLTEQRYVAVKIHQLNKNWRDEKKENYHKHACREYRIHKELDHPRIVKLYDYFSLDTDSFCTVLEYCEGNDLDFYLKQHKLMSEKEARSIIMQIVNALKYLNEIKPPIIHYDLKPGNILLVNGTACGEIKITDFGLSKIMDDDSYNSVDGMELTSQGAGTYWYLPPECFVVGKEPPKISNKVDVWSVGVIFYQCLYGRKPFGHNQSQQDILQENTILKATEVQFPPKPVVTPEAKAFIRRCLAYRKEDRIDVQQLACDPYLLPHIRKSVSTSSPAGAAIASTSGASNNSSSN
UniProt Q8IW41, sequence (whole entry, looked up): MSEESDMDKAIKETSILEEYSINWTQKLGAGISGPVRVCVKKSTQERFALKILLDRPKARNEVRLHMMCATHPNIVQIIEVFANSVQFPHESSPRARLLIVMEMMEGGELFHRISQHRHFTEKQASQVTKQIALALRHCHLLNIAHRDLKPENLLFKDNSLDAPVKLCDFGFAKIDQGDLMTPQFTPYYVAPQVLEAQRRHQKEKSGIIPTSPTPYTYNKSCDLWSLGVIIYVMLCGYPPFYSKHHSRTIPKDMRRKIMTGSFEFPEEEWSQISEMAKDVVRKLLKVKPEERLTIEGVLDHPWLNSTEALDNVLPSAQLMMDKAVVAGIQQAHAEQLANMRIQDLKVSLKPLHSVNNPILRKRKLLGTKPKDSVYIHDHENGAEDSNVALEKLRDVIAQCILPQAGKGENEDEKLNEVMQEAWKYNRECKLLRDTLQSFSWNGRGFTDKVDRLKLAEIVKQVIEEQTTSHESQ
UniProt Q00536, sequence (whole entry, looked up): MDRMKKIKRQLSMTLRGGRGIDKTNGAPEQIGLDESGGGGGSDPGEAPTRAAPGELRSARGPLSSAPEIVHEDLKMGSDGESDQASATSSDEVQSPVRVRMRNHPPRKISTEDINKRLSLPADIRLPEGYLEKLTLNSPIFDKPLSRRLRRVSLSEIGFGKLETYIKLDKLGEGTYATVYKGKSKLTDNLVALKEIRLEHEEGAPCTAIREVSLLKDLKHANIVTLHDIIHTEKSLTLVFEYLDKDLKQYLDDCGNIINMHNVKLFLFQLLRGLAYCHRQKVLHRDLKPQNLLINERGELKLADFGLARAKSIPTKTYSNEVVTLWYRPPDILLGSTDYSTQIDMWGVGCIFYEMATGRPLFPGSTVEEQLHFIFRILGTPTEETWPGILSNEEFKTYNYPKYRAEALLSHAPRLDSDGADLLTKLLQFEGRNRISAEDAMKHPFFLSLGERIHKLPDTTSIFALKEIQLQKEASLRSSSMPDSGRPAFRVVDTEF
UniProt Q9NYV4, sequence (whole entry, looked up): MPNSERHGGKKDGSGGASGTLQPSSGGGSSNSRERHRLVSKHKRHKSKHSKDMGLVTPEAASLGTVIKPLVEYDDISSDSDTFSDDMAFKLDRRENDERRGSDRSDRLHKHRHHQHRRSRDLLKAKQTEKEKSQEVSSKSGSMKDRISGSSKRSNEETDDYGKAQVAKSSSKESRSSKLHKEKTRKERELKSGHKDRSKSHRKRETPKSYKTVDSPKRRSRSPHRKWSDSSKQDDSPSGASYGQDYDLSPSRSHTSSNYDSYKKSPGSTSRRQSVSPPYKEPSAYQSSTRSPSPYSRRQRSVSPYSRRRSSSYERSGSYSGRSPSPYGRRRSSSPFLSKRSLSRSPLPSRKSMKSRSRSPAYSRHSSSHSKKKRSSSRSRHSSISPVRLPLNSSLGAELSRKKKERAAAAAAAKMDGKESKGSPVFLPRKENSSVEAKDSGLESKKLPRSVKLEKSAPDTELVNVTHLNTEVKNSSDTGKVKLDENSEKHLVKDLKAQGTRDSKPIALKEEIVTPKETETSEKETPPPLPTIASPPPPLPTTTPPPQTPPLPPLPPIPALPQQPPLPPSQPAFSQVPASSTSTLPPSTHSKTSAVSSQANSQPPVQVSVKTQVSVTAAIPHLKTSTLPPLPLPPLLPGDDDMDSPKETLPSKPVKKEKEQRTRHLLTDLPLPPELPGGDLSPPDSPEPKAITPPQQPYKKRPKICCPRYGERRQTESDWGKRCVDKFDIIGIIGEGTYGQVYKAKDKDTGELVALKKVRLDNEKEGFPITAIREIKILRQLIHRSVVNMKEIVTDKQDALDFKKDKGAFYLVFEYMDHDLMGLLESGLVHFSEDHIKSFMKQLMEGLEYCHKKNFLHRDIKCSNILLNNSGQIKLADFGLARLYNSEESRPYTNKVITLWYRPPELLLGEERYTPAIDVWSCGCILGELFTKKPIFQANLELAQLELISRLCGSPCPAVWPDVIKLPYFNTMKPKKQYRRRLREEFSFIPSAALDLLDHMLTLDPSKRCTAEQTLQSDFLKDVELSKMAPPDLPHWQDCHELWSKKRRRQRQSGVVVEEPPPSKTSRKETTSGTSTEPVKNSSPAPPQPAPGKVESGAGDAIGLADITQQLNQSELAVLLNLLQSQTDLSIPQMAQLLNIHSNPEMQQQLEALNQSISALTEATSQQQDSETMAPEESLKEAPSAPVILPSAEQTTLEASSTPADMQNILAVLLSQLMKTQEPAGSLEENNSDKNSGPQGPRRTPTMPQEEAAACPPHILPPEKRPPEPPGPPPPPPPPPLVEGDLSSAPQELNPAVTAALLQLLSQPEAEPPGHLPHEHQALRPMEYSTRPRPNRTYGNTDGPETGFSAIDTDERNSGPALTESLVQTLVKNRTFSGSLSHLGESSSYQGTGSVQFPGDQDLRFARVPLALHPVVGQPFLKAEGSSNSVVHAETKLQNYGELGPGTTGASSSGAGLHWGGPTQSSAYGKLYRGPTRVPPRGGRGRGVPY
UniProt P27361, sequence (whole entry, looked up): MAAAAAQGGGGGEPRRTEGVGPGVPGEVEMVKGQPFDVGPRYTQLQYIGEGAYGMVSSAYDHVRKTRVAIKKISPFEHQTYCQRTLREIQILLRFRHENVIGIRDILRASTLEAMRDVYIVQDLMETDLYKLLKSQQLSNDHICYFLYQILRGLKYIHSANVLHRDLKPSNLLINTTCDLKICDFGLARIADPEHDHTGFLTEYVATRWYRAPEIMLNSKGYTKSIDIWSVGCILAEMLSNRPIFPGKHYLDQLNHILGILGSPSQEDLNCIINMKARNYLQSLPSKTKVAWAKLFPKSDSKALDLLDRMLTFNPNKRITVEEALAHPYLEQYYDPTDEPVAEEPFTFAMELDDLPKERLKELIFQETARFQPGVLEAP

COc1cc(CNC(=O)c2ccc(Br)cc2)cc(Br)c1OC — inhibition (rep papain-like protease; enzyme activity, inhibitor, FRET; 10 µM): 80.2%
CC[C@H](C)[C@H](NC(=O)[C@H](CCC(N)=O)NC(=O)[C@@H](NC(=O)[C@H](CCSC)NC(=O)[C@H](CCCCN)NC(=O)[C@H](CO)NC(=O)[C@@H](NC(=O)[C@H](CCSC)NC(=O)[C@H](CC(C)C)NC(=O)[C@H](CC(N)=O)NC(=O)[C@@H](NC(=O)[C@@H](NC(=O)[C@H](CO)NC(=O)[C@H](CC(C)C)NC(=O)[C@H](C)NC(=O)[C@H](CCCNC(=N)N)NC(=O)[C@H](CCC(=O)O)NC(=O)[C@H](Cc1ccc(O)cc1)NC(=O)[C@H](Cc1ccccc1)NC(=O)[C@H](C)NC(=O)[C@H](CC(N)=O)NC(=O)[C@@H](N)CCCCN)[C@@H](C)CC)[C@@H](C)CC)[C@@H](C)O)C(C)C)C(=O)N[C@@H](CC(N)=O)C(=O)N[C@H](C(=O)O)C(C)C — inhibition (MAPK3 (Homo sapiens, UniProt P27361); enzyme activity, inhibitor, radiometric; 250 µM): 35%
COc1cc(-c2cncc3c2CN(C)Cc2cc(N4CCNCC4)ccc2-3)cc(OC)c1OC — remaining activity (TLK2 (Homo sapiens, UniProt Q86UE8); enzyme activity, inhibitor; 1 µM): 104%
CCCN(O)N=Nc1ccc(S(=O)(=O)Nc2nccs2)cc1 — inhibition (AMY2; enzyme activity, inhibitor; 120 µg/mL): 36.8%
CN1CC(Oc2cnc(C#N)cc2-c2ccn3nc(NC(=O)C4CC4)cc3c2)C1 — inhibition (Cyclin-dependent kinase 12, with cyclin K (CDK12, Homo sapiens, UniProt Q9NYV4); enzyme activity, inhibitor; 1 µM): -17%
CCCCC(=O)Nc1ccc(-c2ccc3ncn(CCC)c(=O)c3c2)cn1 — remaining binding (MAPKAPK5 (Homo sapiens, UniProt Q8IW41); binding, competition with immobilised ligand; 0.5 µM): 72%
Cc1cccc(N(O)N=Nc2ccc(S(=O)(=O)Nc3onc(C)c3C)cc2)c1 — inhibition (AMY2; enzyme activity, inhibitor; 20 µg/mL): 15.8%
COc1cc(CNC(=O)c2c[nH]c3ccccc23)cc(Br)c1OC — inhibition (Replicase polyprotein 1ab, main protease (rep, Porcine epidemic diarrhea virus, UniProt P0C6Y4); enzyme activity, inhibitor, FRET; 10 µM): 124%
Cc1cc([C@@H](C)Nc2ccccc2C(=O)O)c2nc(N3CCC(F)(F)CC3)c(C#N)c(=O)n2c1 — remaining binding (CDK16 (Homo sapiens, UniProt Q00536); binding, competition with immobilised ligand; 1 µM): 60%
NC/C(=C\F)COc1cccc(Cn2c(=S)[nH]c(=O)c3[nH]cnc32)c1 — inhibition (AOC1 (Homo sapiens, UniProt P19801); enzyme activity, inhibitor; 1.4 nM): 2.88%
C=CC(=O)N1CCC(COCC(=O)N2CCN(c3nc(-c4cnc(N)nc4C(F)F)nc(N4CCOC[C@@H]4C)n3)CC2)CC1 — remaining binding (NIM1K (Homo sapiens, UniProt Q8IY84); binding, competition with immobilised ligand; 1 µM): 85%
COc1cc(CNC(=O)c2ccco2)cc(Br)c1OC — inhibition (rep papain-like protease; enzyme activity, inhibitor, FRET; 10 µM): 7.88%
CCN(O)N=Nc1ccc(S(=O)(=O)Nc2nccs2)cc1 — inhibition (AMY2; enzyme activity, inhibitor; 120 µg/mL): 26.3%

For quick reference, copied from above:
CCCCC(=O)Nc1ccc(-c2ccc3ncn(CCC)c(=O)c3c2)cn1 — remaining binding (MAPKAPK5 (Homo sapiens, UniProt Q8IW41); binding, competition with immobilised ligand; 0.5 µM): 72%
Cc1cccc(N(O)N=Nc2ccc(S(=O)(=O)Nc3onc(C)c3C)cc2)c1 — inhibition (AMY2; enzyme activity, inhibitor; 20 µg/mL): 15.8%
